# Published values from different studies.
# Protein sequences, listed by entry. Tags and fused reporters are not part of them. Lines headed by an entry give the natural chain unless they say otherwise; changes in a name come on top. Residues count along the entry.
# UniProt Q8N752, whole entry: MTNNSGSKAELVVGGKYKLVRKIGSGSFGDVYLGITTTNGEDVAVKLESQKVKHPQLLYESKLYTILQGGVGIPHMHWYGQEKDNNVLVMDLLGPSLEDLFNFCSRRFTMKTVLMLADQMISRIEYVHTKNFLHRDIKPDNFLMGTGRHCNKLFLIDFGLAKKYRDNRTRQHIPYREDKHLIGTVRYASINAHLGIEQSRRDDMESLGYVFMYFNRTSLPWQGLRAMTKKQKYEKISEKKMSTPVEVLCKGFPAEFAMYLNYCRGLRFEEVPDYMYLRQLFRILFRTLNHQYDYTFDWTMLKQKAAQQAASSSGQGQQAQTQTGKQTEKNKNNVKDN
# UniProt P10688, 11-140 limits assumed: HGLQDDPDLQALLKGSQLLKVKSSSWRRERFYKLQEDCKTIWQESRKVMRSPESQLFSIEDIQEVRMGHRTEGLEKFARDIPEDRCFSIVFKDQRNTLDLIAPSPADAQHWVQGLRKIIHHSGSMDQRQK
# UniProt Q9Y508, whole entry: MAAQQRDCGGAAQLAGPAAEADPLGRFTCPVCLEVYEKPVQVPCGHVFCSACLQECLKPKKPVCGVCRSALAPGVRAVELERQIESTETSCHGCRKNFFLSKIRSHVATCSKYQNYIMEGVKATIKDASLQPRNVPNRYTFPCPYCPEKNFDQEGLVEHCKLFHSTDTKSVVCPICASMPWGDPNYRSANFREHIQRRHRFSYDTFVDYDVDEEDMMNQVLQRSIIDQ
# UniProt P07550, whole entry M96T/M98T/N187E/C378A/C406A: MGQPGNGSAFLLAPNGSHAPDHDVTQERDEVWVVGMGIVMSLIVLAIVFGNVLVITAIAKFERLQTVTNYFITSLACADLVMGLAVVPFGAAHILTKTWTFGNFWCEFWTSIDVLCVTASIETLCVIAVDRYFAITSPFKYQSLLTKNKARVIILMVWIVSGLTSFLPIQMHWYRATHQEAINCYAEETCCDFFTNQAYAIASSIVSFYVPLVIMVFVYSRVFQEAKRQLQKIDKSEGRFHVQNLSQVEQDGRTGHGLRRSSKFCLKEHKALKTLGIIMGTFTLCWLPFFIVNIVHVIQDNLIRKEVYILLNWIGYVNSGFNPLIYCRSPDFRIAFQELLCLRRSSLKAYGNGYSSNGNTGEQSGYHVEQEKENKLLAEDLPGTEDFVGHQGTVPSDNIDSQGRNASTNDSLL
# UniProt P31749, 5-108 limits assumed: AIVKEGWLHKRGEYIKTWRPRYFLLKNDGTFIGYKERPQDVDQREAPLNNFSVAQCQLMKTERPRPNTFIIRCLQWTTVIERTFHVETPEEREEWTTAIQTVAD
# UniProt P10636, whole entry, looked up: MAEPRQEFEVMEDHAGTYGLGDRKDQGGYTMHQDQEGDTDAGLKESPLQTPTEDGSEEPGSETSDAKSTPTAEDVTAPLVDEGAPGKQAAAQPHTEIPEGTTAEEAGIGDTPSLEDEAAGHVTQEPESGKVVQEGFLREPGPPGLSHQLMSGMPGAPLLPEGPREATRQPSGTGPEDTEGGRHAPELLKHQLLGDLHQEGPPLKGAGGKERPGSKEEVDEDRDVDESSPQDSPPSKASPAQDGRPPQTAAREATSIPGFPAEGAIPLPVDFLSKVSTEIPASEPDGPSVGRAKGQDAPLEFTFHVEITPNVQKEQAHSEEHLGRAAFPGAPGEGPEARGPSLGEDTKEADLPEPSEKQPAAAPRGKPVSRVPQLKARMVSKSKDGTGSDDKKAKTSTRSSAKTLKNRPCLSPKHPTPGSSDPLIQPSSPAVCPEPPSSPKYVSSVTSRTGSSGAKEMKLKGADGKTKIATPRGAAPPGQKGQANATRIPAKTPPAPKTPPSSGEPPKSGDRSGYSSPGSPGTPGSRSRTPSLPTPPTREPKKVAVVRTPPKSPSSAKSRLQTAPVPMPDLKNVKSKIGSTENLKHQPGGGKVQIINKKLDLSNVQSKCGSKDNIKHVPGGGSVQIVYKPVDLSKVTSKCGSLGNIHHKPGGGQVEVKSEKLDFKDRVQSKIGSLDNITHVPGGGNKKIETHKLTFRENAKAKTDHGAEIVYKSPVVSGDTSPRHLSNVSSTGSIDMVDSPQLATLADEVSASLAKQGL
# UniProt Q9BPZ7, 358-522 limits assumed: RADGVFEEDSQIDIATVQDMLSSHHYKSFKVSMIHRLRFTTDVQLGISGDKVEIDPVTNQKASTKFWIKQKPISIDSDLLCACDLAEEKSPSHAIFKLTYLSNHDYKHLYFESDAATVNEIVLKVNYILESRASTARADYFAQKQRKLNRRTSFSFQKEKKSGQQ
# UniProt O14618, whole entry: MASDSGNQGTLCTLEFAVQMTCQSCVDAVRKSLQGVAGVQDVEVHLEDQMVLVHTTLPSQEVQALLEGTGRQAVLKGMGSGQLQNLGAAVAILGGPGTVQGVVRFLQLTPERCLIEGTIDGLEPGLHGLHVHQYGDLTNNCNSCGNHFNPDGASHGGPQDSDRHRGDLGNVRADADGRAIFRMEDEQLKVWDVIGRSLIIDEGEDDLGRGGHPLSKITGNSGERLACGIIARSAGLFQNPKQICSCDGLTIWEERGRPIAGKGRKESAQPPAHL
# UniProt Q12851, whole entry: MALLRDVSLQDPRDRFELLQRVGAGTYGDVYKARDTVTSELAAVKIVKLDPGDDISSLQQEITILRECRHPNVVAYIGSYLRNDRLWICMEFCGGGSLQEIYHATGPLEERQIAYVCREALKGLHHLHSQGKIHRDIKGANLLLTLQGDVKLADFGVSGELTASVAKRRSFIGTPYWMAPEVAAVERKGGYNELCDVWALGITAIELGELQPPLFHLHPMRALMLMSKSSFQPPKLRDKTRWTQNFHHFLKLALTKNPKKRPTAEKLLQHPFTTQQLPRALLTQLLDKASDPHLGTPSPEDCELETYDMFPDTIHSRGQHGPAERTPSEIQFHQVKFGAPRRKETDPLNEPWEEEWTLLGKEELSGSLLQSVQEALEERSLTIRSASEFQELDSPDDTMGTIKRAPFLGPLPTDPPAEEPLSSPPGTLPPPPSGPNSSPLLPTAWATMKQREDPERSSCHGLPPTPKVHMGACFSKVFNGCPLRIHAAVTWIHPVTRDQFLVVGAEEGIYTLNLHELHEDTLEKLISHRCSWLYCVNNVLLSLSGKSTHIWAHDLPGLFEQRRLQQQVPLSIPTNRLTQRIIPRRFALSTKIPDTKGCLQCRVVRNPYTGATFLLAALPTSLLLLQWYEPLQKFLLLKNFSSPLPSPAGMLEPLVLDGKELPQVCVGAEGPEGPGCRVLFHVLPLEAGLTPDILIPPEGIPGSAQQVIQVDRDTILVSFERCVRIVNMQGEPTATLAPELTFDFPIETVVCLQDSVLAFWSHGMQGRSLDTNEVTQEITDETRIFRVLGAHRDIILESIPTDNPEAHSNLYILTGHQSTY
# UniProt P26040, whole entry: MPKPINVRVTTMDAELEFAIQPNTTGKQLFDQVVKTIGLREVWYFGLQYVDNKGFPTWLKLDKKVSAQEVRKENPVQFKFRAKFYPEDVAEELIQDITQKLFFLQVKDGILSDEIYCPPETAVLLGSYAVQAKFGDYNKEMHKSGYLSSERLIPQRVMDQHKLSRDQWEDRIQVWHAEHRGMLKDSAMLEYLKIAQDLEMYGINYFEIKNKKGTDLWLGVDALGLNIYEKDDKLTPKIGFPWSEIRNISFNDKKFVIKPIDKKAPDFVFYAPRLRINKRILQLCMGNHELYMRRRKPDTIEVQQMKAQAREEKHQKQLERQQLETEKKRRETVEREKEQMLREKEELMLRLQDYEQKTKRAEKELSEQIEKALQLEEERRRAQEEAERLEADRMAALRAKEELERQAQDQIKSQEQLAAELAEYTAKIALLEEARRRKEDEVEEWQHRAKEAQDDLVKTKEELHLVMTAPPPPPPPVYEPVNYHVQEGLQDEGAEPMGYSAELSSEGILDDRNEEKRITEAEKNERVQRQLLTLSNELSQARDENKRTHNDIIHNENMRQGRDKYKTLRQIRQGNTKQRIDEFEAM
# UniProt Q13546, whole entry: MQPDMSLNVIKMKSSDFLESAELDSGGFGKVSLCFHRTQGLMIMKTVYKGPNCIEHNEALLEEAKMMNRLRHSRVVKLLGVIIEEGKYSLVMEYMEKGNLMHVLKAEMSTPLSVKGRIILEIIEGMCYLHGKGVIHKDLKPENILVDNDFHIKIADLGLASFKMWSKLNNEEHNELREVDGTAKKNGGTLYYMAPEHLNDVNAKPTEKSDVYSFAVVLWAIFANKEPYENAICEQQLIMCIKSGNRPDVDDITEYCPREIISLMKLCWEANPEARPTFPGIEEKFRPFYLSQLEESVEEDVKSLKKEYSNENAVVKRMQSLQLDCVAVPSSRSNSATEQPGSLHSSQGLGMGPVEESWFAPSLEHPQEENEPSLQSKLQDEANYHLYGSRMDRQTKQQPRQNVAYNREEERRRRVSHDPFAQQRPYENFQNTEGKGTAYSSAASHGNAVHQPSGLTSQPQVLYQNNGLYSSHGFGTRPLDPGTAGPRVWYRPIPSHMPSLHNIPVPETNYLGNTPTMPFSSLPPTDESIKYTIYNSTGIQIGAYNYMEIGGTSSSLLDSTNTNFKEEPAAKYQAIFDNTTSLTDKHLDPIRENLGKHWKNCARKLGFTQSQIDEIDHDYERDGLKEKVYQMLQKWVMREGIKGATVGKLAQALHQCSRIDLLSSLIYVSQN
# UniProt Q12913, whole entry, looked up: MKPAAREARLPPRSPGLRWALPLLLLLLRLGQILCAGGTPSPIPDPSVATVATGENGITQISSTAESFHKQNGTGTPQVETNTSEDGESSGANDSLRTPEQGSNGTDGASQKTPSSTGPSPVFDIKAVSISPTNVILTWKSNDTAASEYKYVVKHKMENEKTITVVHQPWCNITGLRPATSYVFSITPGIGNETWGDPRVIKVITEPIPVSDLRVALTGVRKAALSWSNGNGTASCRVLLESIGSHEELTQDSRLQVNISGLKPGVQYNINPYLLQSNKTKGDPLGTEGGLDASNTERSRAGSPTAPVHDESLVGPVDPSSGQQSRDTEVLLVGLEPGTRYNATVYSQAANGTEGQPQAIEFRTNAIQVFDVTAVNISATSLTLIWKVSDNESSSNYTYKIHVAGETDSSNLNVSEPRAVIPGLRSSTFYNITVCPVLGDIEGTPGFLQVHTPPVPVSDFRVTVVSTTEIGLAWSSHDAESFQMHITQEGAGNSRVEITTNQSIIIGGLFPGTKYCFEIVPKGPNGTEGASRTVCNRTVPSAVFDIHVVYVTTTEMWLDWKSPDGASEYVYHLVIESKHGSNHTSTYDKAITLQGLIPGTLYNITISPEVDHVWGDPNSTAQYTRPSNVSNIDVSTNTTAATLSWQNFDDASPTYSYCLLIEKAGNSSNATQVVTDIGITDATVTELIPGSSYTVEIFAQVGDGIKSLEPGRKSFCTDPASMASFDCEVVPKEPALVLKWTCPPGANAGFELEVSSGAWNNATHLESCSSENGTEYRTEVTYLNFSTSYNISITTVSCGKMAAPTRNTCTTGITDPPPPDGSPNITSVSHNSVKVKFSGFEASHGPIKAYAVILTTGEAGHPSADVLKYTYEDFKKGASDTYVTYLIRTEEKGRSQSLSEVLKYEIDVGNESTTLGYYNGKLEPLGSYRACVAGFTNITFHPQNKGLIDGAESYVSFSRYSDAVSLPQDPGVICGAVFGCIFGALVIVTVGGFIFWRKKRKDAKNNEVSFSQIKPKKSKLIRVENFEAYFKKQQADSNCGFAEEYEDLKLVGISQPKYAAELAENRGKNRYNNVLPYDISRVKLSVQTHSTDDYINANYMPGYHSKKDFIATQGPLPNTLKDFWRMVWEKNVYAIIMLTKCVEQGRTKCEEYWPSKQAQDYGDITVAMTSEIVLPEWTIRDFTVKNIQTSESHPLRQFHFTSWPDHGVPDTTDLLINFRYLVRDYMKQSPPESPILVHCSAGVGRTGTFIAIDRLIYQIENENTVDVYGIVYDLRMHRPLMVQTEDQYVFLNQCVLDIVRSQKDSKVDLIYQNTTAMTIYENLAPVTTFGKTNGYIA
# UniProt O95069, whole entry, looked up: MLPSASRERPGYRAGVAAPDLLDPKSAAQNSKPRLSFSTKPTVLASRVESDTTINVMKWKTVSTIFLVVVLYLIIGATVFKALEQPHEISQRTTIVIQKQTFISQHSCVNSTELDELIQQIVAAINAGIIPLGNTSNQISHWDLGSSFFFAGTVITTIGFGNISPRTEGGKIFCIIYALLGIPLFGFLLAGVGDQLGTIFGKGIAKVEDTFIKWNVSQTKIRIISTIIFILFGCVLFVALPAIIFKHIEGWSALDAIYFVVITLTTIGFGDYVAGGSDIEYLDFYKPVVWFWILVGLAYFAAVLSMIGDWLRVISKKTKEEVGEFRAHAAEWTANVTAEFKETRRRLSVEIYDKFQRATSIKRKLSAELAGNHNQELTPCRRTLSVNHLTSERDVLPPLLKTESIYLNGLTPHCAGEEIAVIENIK
# UniProt P30542, whole entry: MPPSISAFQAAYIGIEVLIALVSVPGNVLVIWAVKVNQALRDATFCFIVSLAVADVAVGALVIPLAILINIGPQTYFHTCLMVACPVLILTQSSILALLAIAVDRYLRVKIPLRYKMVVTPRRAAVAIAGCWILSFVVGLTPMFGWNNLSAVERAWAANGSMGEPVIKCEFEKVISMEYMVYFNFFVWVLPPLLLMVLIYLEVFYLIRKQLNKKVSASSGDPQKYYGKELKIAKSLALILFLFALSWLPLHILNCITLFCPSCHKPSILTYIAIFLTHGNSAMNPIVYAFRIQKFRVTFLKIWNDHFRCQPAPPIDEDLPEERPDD
# “And” joins repeats or separate records; there may be more than shown. ± marks the error that the study gave.
Compound,tested on,assay,system,conditions,scale,endpoint,result
Fc1cccc(-n2cnc3c(NCc4nc5cc(Cl)ccc5[nH]4)nc(N4CCNCC4)nc32)c1,"Casein kinase I isoform alpha-like (CSNK1A1L, Homo sapiens, UniProt Q8N752)",KINOMEscan competition binding,,10 µM,reference: control,remaining binding,2.5%
CCCCCCCC(=O)OCC(COP(=O)(O)OC1C(O)C(O)C(OP(=O)(O)O)C(OP(=O)(O)O)C1O)OC(=O)CCCCCCC (stereo not drawn),"1-phosphatidylinositol 4,5-bisphosphate phosphodiesterase delta-1, PH domain (Plcd1, Rattus norvegicus, UniProt P10688)","membrane binding, sedimentation",LUVs with PtdSer,,,Kd,1.7 ± 0.2 µM
Nc1ncnc2c1ncn2[C@@H]1O[C@H](COP(=O)(O)OP(=O)(O)OC[C@H]2OC(O)[C@H](O)[C@@H]2O)[C@@H](O)[C@H]1O (stereo partly drawn),"E3 ubiquitin-protein ligase RNF114 (RNF114, Homo sapiens, UniProt Q9Y508)",fluorescence polarization,,"pH 7.4, 22 °C, 150 mM NaCl, labelled compound",,Kd,~40 µM
Fc1ccc(Nc2nc(NC3CCCCC3)c3cc(Br)ccc3n2)cc1F,"Beta-2 adrenergic receptor (ADRB2, Homo sapiens, UniProt P07550, M96T/M98T/N187E/C378A/C406A)","allosteric, SPR steady state",,"pH 7.5, 0.01% LMNG",,Kd,~30 µM
Cc1c(O)cc2c(c1C)O[C@](C)(CCCC(C)C)CC2,"RAC-alpha serine/threonine-protein kinase, PH domain (AKT1, Homo sapiens, UniProt P31749)",binding,,,,Kd,0.9 ± 0.1 µM
O=C(Nc1cccnn1)N1CC(Oc2ccc(-c3ccccc3F)cn2)C1,,,healthy humans,oral,reference: baseline,semen parameters,no effect
CC[C@@H]1C(=O)N(C)c2cnc(Nc3ccc(C(=O)NC4CCN(C)CC4)cc3OC)nc2N1C1CCCC1,"Transcription initiation factor TFIID subunit 1-like (TAF1L, Homo sapiens, UniProt Q8IZX4)",,,10 µM,,delta Tm,-0.48 ± 0.1 °C
Fc1cc(-c2ccc3c(n2)[nH]c2ccncc23)ccn1 [isotope labelled],"Microtubule-associated protein tau, paired helical filaments (MAPT, Homo sapiens, UniProt P10636)",radioligand binding,PHF tau brain homogenate,9.68 nM,higher = more binding,specific binding,8.52 a.u.
CCCCCCCC(=O)OC[C@H](COP(=O)(O)O[C@H]1[C@H](O)[C@@H](OP(=O)(O)O)[C@H](OP(=O)(O)O)[C@@H](OP(=O)(O)O)[C@H]1O)OC(=O)CCCCCCC,"Target of rapamycin complex 2 subunit MAPKAP1, PH domain (Homo sapiens, UniProt Q9BPZ7)","binding, surface plasmon resonance",immobilized lipid vesicles,,,Kd,0.141 µM
Nc1c(C(=O)Nc2c(F)cc(F)cc2Br)sc2nc3c(cc12)CCC3,"Copper chaperone for superoxide dismutase (CCS, Homo sapiens, UniProt O14618)","binding, fluorescence anisotropy",,,,Kd,7.9 µM
COc1cc(OC)c(NC(=O)CSc2nnc(-c3ccccc3)n2C)cc1Cl,"Cyclin-dependent kinase 2, part with cyclin A (CDK2, Homo sapiens, UniProt P24941)",,,,,Kd,> 100 µM
CCN1CCN(Cc2ccc(NC(=O)c3ccc(C)c(Oc4ncnc5cc(OC)c(OC)cc45)c3)cc2C(F)(F)F)CC1,"Mitogen-activated protein kinase kinase kinase kinase 2 (MAP4K2, Homo sapiens, UniProt Q12851)",KINOMEscan competition binding,,1.0 µM,,residual probe binding,0.3%
O=C1C=C(NCCc2cc(Br)c(O)c(Br)c2)C(=O)c2ncccc21,"Ezrin (Ezr, Mus musculus, UniProt P26040)",SPR,,,,Kd,12.6 µM and ~10 µM
CC1=CC(C)=[N+]2C1=Cc1ccc(CCC(=O)NCCCn3cc(-c4ccc5c(c4)CCN5C(=O)Cc4cccc(OC(F)(F)F)c4)c4c(N)ncnc43)n1[B-]2(F)F,"Receptor-interacting serine/threonine-protein kinase 1 (RIPK1, Homo sapiens, UniProt Q13546)","binding, TR-FRET saturation binding",,,,Kd,0.608 µM
COc1cc(CC(=O)NCC(NC(=O)C(CCCNC(=O)c2cccc(I)c2)NC(=O)C(Cc2ccc(C(F)(F)P(=O)(O)O)cc2)NC(=O)c2ccc(C)c(Br)c2)C(N)=O)ccc1O (stereo not drawn),"Receptor-type tyrosine-protein phosphatase eta (PTPRJ, Homo sapiens, UniProt Q12913)",enzyme activity,,10 µM,,inhibition,no inhibition
C#CCCCn1c(Sc2c(C)cc(C)cc2C)nc2c(N)ncnc21,"Heat shock protein HSP 90-alpha (HSP90AA1, Homo sapiens, UniProt P07900)","binding, FP competition or ITC",,,,Kd,28.4 ± 3.3 µM
CCCCCCCC(=O)OCC(COP(=O)(O)OC1C(O)C(O)C(OP(=O)(O)O)C(OP(=O)(O)O)C1O)OC(=O)CCCCCCC (stereo not drawn),"Potassium channel subfamily K member 2 (KCNK2, Homo sapiens, UniProt O95069)",BRET competition binding,purified protein in detergent,with: fluorescent ligand 500 nM,,Kd,2.4 ± 0.28 µM
CCCn1c(=O)c2[nH]c(-c3ccc(OCC(=O)NCCNC(=O)CCCCCNC(=O)COc4ccc(/C=C/C5=[N+]6C(=Cc7ccc(-c8cccs8)n7[B-]6(F)F)C=C5)cc4)cc3)nc2n(CCC)c1=O,"Adenosine receptor A1 (ADORA1, Homo sapiens, UniProt P30542)",NanoBRET saturation binding,HEK293T expressing NanoLuc-tagged receptor,"1 h, 37 °C",,Kd,0.147 ± 0.072 µM

# Excerpt of the above:
Compound,tested on,assay,system,conditions,scale,endpoint,result
Nc1c(C(=O)Nc2c(F)cc(F)cc2Br)sc2nc3c(cc12)CCC3,"Copper chaperone for superoxide dismutase (CCS, Homo sapiens, UniProt O14618)","binding, fluorescence anisotropy",,,,Kd,7.9 µM
COc1cc(OC)c(NC(=O)CSc2nnc(-c3ccccc3)n2C)cc1Cl,"Cyclin-dependent kinase 2, part with cyclin A (CDK2, Homo sapiens, UniProt P24941)",,,,,Kd,> 100 µM
